Assay results of several laboratories.
± marks the error that the study gave.

Structure (SMILES)	system	conditions	tissue uptake [%ID/g]
CCCC[C@H](NC(=O)CCCCCCCNC(=O)CN1CCN(CC(=O)O)CCN(CC(=O)O)CC1)C(=O)N[C@H]1CC(=O)NCCCC[C@@H](C(N)=O)NC(=O)[C@H](Cc2c[nH]c3ccccc23)NC(=O)[C@H](CCCNC(=N)N)NC(=O)[C@@H](Cc2ccccc2)NC(=O)[C@H](Cc2c[nH]cn2)NC1=O [copper-64 labelled]	C57 mice, lung	intravenous, 0.37 MBq, 4 h	0.36 ± 0.08
CC(C)C[C@H](NC(=O)[C@@H](CCCCNC(=O)CCCCCNC(=O)CN1CCN(CC(=O)O)CCN(CC(=O)O)CCN(CC(=O)O)CC1)NC(=O)[C@H](Cc1ccc(O)cc1)NC(=O)[C@H](CO)NC(=O)[C@H](Cc1c[nH]c2ccccc12)NC(=O)[C@H](Cc1cnc[nH]1)NC(=O)[C@@H]1CCC(=O)N1)C(=O)N[C@@H](CCCNC(=N)N)C(=O)N1CCC[C@H]1C(=O)NCC(N)=O [indium-111 labelled]	female athymic nude mouse, liver	intravenous, 0.037 MBq, 4 h	0.97 ± 0.13
CCCC[C@H](NC(=O)CNC(=O)CNC(=O)CN1CCN(CC(=O)O)CCN(CC(=O)O)CC1)C(=O)N[C@H]1CC(=O)NCCCC[C@@H](C(N)=O)NC(=O)[C@H](Cc2c[nH]c3ccccc23)NC(=O)[C@H](CCCNC(=N)N)NC(=O)[C@@H](Cc2ccccc2)NC(=O)[C@H](Cc2c[nH]cn2)NC1=O [technetium-99m labelled]	C57 mouse, stomach	iv, 0.037 MBq, 24 h	0.06 ± 0.07
CCCC[C@H](NC(=O)CNC(=O)CNC(=O)CN1CCN(CC(=O)O)CCN(CC(=O)O)CCN(CC(=O)O)CC1)C(=O)N[C@H]1CC(=O)NCCCC[C@@H](C(N)=O)NC(=O)[C@H](Cc2c[nH]c3ccccc23)NC(=O)[C@H](CCCNC(=N)N)NC(=O)[C@@H](Cc2ccccc2)NC(=O)[C@H](Cc2c[nH]cn2)NC1=O [lutetium-177 labelled]	C57 mouse, female, tumour	intravenous, 0.037 MBq, 0.5 h	20.2 ± 4.59
N=C(N)NCCC[C@@H]1NC(=O)[C@H](CCCCNC(=O)CNC(=O)CNC(=O)CNC(=O)CC[C@H](NC(=O)CNC(=O)CNC(=O)CNC(=O)CC[C@H](NC(=O)CN2CCN(CC(=O)O)CCN(CC(=O)O)CCN(CC(=O)O)CC2)C(=O)NCC(=O)NCC(=O)NCC(=O)N[C@@H](CCC(=O)NCC(=O)NCC(=O)NCC(=O)NCCCC[C@@H]2NC(=O)[C@@H](Cc3ccccc3)NC(=O)[C@H](CC(=O)O)NC(=O)CNC(=O)[C@H](CCCNC(=N)N)NC2=O)C(=O)NCC(=O)NCC(=O)NCC(=O)NCCCC[C@@H]2NC(=O)[C@@H](Cc3ccccc3)NC(=O)[C@H](CC(=O)O)NC(=O)CNC(=O)[C@H](CCCNC(=N)N)NC2=O)C(=O)NCC(=O)NCC(=O)NCC(=O)NCCCC[C@@H]2NC(=O)[C@@H](Cc3ccccc3)NC(=O)[C@H](CC(=O)O)NC(=O)CNC(=O)[C@H](CCCNC(=N)N)NC2=O)NC(=O)[C@@H](Cc2ccccc2)NC(=O)[C@H](CC(=O)O)NC(=O)CNC1=O [indium-111 labelled]	female athymic nu/nu mice, brain	intravenous, 0.5 h	0.13 ± 0.08
CC(C)C[C@H](NC(=O)[C@H](Cc1ccc(O)cc1)NC(=O)[C@@H](CCCNC(=N)N)NC(=O)[C@@H](CO)NC(=O)[C@H](Cc1ccccc1)NC(=O)[C@H](CC1CCCCC1)NC(=O)[C@H](CC(=O)O)NC(=O)CN1CCCN2CCN(CCCN(CC(=O)O)CC2)CC1)C(=O)N[C@@H](Cc1c[nH]c2ccccc12)C(=O)N[C@@H](CO)C(=O)O [copper-64 labelled]	female NMRI nude mice, muscle	1 h p.i.	0.3 ± 0.1
CCCC[C@H](NC(=O)COCCOCCNC(=O)CN1CCN(CC(=O)O)CCN(CC(=O)O)CC1)C(=O)N[C@H]1CC(=O)NCCCC[C@@H](C(N)=O)NC(=O)[C@H](Cc2c[nH]c3ccccc23)NC(=O)[C@H](CCCNC(=N)N)NC(=O)[C@@H](Cc2ccccc2)NC(=O)[C@H](Cc2c[nH]cn2)NC1=O [copper-64 labelled]	C57 mice, heart	intravenous, 0.37 MBq, 0.5 h	2.29 ± 0.54
N=C(N)NCCC[C@@H]1NC(=O)[C@H](CCCCNC(=O)CC[C@H](NC(=O)CC[C@H](NC(=O)CN2CCN(CC(=O)O)CCN(CC(=O)O)CCN(CC(=O)O)CC2)C(=O)N[C@@H](CCC(=O)NCCCC[C@@H]2NC(=O)[C@@H](Cc3ccccc3)NC(=O)[C@H](CC(=O)O)NC(=O)CNC(=O)[C@H](CCCNC(=N)N)NC2=O)C(=O)NCCCC[C@@H]2NC(=O)[C@@H](Cc3ccccc3)NC(=O)[C@H](CC(=O)O)NC(=O)CNC(=O)[C@H](CCCNC(=N)N)NC2=O)C(=O)NCCCC[C@@H]2NC(=O)[C@@H](Cc3ccccc3)NC(=O)[C@H](CC(=O)O)NC(=O)CNC(=O)[C@H](CCCNC(=N)N)NC2=O)NC(=O)[C@@H](Cc2ccccc2)NC(=O)[C@H](CC(=O)O)NC(=O)CNC1=O [indium-111 labelled]	female athymic nu/nu mice, U87MG tumour	intravenous, 111 kBq, 1 h	7.98 ± 2.36
